{"data": "Published values gathered from unrelated publications", "note": "Each line is one published result; not all experiments were run side by side. Several values in a cell are separate wells, animals, samples, runs or records. ± marks the error that the study gave."}
{"SMILES": "COc1ccc(OC)c(N2C(=O)NC(=O)/C(=C\\c3ccc([N+](=O)[O-])s3)C2=O)c1", "cell line": "LDR", "assay": "silenced CMV-GFP reporter derepression, qHTS", "endpoint": "efficacy", "result": "50%"}
{"SMILES": "C[C@@H]1O[C@@H](O[C@H]2C[C@@H](O)[C@]3(CO)[C@H]4[C@H](O)C[C@]5(C)[C@@H](C6=CC(=O)OC6)CC[C@]5(O)[C@@H]4CC[C@]3(O)C2)[C@H](O)[C@H](O)[C@H]1O", "cell line": "MYBPC3 iPSC cardiomyocytes", "assay": "plate-normalised", "setting": "concentration not given, 24 h, hit retest", "endpoint": "MyBP-C level", "result": "13.9%"}
{"SMILES": "Cc1nn(-c2nc3c(F)cc(F)cc3s2)c(O)c1C(c1ccc(C(F)(F)F)cc1)c1c(C)nn(-c2nc3c(F)cc(F)cc3s2)c1O", "cell line": "RAW-ISG", "assay": "CCK-8", "setting": "12.5 µM", "endpoint": "viability", "result": "104% and 103% and 106% and 99.5% and 93.9%"}
{"SMILES": "O=c1cc(-c2ccccc2)oc2c(O)c(O)ccc12", "cell line": "SH-SY5Y Aβ-GFP cells, scrambled shRNA", "setting": "5 µM", "endpoint": "neurite process number", "result": "3.7 to 3.8"}
{"SMILES": "COc1ccc2c(c1)[nH]c1c(C)nccc12", "cell line": "DU-145", "assay": "bisulfite pyrosequencing, measured: RASSF1A promoter CpG site 5", "setting": "10 µM, 16 h", "endpoint": "DNA methylation", "result": "86.8%"}
{"SMILES": "COC(=O)/C(C)=C\\C[C@@]12OC(C)(C)[C@@H]3C[C@@H](C=C4C(=O)c5c(O)c6c(c(CC=C(C)C)c5O[C@]431)O[C@](C)(CCC=C(C)C)C=C6)C2=O", "cell line": "MYBPC3 iPSC cardiomyocytes", "assay": "plate-normalised", "setting": "concentration not given, 24 h, hit retest", "endpoint": "MyBP-C level", "result": "0.4%"}
{"SMILES": "COc1c(CCC[P+](c2ccccc2)(c2ccccc2)c2ccccc2)cc2c(c1OC)OCO2.[I-]", "cell line": "SF-268", "assay": "SRB", "endpoint": "LC50", "result": "-4.23 log M"}
{"SMILES": "O=S(=O)(c1ccc(O)cc1)c1ccc(O)cc1", "cell line": "HepG2 spheroids", "assay": "flow cytometry", "setting": "concentration not given, 24 h", "endpoint": "cell cycle distribution", "result": "no effect"}
{"SMILES": "CN1CCc2cc3c(cc2[C@H]1[C@@H]1OC(=O)c2c1ccc1c2OCO1)OCO3", "cell line": "hiPSC glutamatergic neurons", "assay": "burst frequency, multi-electrode array", "setting": "2 h", "endpoint": "lowest effective concentration", "result": "100 µM"}
{"SMILES": "Cc1cc(O)ccc1Cl", "cell line": "SH-SY5Y", "assay": "neurite outgrowth inhibition, phase-contrast imaging", "setting": "24 h, nominal concentration", "endpoint": "EC10", "result": "56.4 µM"}
{"SMILES": "O=C1N(Cc2ccccc2Cl)c2ccccc2C12NN=C(c1ccccc1)S2 (centres unmarked)", "cell line": "MDA-MB-468", "assay": "gene expression array, measured: C11orf74 mRNA", "setting": "10 µM, 12 h", "scale": "baseline: untreated, down", "endpoint": "fold change", "result": 1.57}
{"SMILES": "Cn1nccc1Nc1nccc(-c2ccn([C@H](CO)c3ccc(Cl)c(F)c3)c(=O)c2)n1", "cell line": "HCT116", "assay": "IncuCyte", "setting": "concentration not given, 0 (unit not given)", "endpoint": "PI-positive cells", "result": "1.75 count and 1.92 count and 1.83 count"}
{"SMILES": "CC[C@H]1CN2CCc3cc(OC)c(OC)cc3[C@@H]2C[C@@H]1C[C@H]1NCCc2cc(OC)c(OC)cc21.Cl.Cl", "cell line": "LDR", "assay": "silenced CMV-GFP reporter derepression, qHTS", "endpoint": "efficacy", "result": "22%"}
{"SMILES": "C/C=C(/C)C(=O)O[C@H]1C(C)=C2[C@H]([C@@H]1OC(=O)CCCCCCC)[C@@](C)(OC(C)=O)C[C@H](OC(=O)CCC)[C@@]1(O)[C@H]2OC(=O)[C@@]1(C)O", "cell line": "HEK293T", "assay": "RNA-seq, measured: HSPA1A mRNA", "setting": "10 µM, 6 h", "scale": "baseline: vehicle", "endpoint": "log2 fold change", "result": -2.06}
{"SMILES": "CC(=O)O[C@H]1CC[C@@]2(C)[C@H](CC[C@@H]3[C@@H]2CC[C@]2(C)[C@@H](C4=CC(=O)OC4)[C@@H](OC(C)=O)C[C@]32O)C1", "cell line": "MYBPC3 iPSC cardiomyocytes", "assay": "plate-normalised", "setting": "concentration not given, 24 h, hit retest", "endpoint": "MyBP-C level", "result": "18.8%"}
{"SMILES": "COc1ccc([C@H]2c3[nH]c4ccc(Cl)cc4c3CCN2C(=O)Oc2ccc(Cl)cc2)cc1", "cell line": "HUVEC and PBMC co-culture", "assay": "BioMAP SAg, measured: CD40", "setting": "0.1 µM, 24 h, with: TCR ligands", "endpoint": "inhibition", "result": "29%"}
{"SMILES": "CC1(C)CN(CCCCC(=O)N[C@H](Cc2ccc(O)c(I)c2)C(=O)N[C@H](Cc2ccccc2)C(=O)N[C@H](CCCCNC(=O)CCCCCCC(=O)NCCCC[C@H](NC(=O)N[C@@H](CCC(=O)O)C(=O)O)C(=O)O)C(=O)O)CC[N]2CC(C)(C)[S][Tc]2(=[O])[S]1 (some centres unmarked) [technetium-99m labelled]", "cell line": "LNCaP", "setting": "25 nM, 1 h, 4 °C", "endpoint": "internalized activity", "result": "0.37 ± 0.2 %AD/mg protein"}
{"SMILES": "CNC(=O)Oc1cccc2ccccc12", "cell line": "SH-SY5Y", "assay": "neurite outgrowth inhibition, phase-contrast imaging", "setting": "freely dissolved concentration", "endpoint": "EC10", "result": "0.0287 µM"}
{"SMILES": "CCN(CC)c1ccc(C=NNC(=O)CSc2nc3ccccc3c(=O)n2Cc2ccc(S(N)(=O)=O)cc2)c(O)c1", "cell line": "OVCAR-8", "assay": "NCI five-dose screen", "endpoint": "CC50", "result": "> 100 µM"}
{"SMILES": "CC[C@@H]1C(=O)N(C)c2cnc(Nc3ccc(C(=O)NC4CCN(C)CC4)cc3OC)nc2N1C1CCCC1", "cell line": "HD-MB03", "setting": "with: ribociclib 5 µM", "scale": "baseline: ribociclib over DMSO", "endpoint": "fold change in IC50", "result": 1.29}
{"SMILES": "NCCOCC(=O)N1CCCC(C(=O)NCc2nc(-c3ccc(-c4ccc(F)cc4)cc3)cs2)C1 (centres unmarked)", "cell line": "Jurkat", "assay": "cytotoxicity", "endpoint": "EC50", "result": "~10 µM"}
{"SMILES": "COc1cccc2c1C(=O)c1c(O)c3c(c(O)c1C2=O)C[C@@](O)(C(=O)CO)C[C@@H]3O[C@H]1C[C@H](N)[C@H](O)[C@H](C)O1", "cell line": "SiHa", "assay": "sulforhodamine B", "setting": "10 µg/mL, 48 h", "scale": "negative means cell kill", "endpoint": "growth percent", "result": "-59.4%"}
{"SMILES": "COc1ccc([C@@H](O)c2cc(-c3ncnc4cc(N5CCOCC5)ccc34)c(F)cc2Cl)nn1", "cell line": "M12", "setting": "1000 nM, with: radiation 2.5 Gy", "endpoint": "clonogenic survival", "result": "2 ± 0.2%"}
{"SMILES": "O=c1cc(-c2ccc(O)cc2)oc2cc(O)cc(O)c12", "cell line": "SH-SY5Y Aβ-GFP cells, TRKB shRNA", "setting": "5 µM", "endpoint": "neurite branch number", "result": "1.3 to 1.5"}
{"SMILES": "C[C@]12CC[C@H](O)C[C@H]1CC[C@@H]1[C@@H]2CC[C@]2(C)[C@@H](c3ccc(=O)oc3)CC[C@]12O", "cell line": "MCF7", "assay": "RT-qPCR, measured: AGR2", "setting": "50 nM, 48 h, unit not given, with: estradiol", "scale": "baseline: untreated", "endpoint": "mRNA level", "result": "0.886 and 0.735 and 0.75"}
{"SMILES": "Nc1ncnc2c1ncn2[C@@H]1O[C@@H]2COP(=O)(O)O[C@H]3[C@@H](O)[C@H](n4cnc5c(=O)[nH]cnc54)O[C@@H]3COP(=O)(O)O[C@H]2[C@H]1O", "cell line": "HFF-1", "assay": "RNA sequencing, measured: Cytokine Signaling", "setting": "upregulated pathway", "scale": "baseline: Zika virus alone", "endpoint": "pathway fold enrichment", "result": 5.21}
{"SMILES": "CC(C)N1CCC(NC2CCN(c3cccc(-c4cc5cc(F)ccc5[nH]4)c3)CC2)CC1", "cell line": "SF-268", "endpoint": "CC50", "result": "6.04 µM"}
{"SMILES": "Cc1ccccc1NC(=O)Nc1ccc(CC(=O)N[C@@H](CCCCNC(=O)/C=C/c2cccnc2)C(=O)N[C@@H](CCCC(=O)O)C(=O)NC2(C(=O)NCCOCCOCCOCCOCC(=O)N[C@@H](CCCCNC(=S)Nc3ccc(CCCN(CCN4CCN(CP(=O)(O)O)CCN(CP(=O)(O)O)CC4)CC(=O)O)cc3)C(N)=O)CCCCC2)cc1 [gallium-68 labelled]", "cell line": "B16-F10 cells", "setting": "2 h efflux", "endpoint": "cellular retention", "result": "61.8 ± 4.3%"}
{"SMILES": "Cc1cc(C(C)(C)c2ccc(O)c(C)c2)ccc1O", "cell line": "HepG2 spheroids", "assay": "planimetry", "setting": "10 µM, 0 to 24 h", "scale": "baseline: mean area of 72 h spheroids", "endpoint": "spheroid area increase", "result": "126%"}
{"SMILES": "Nc1ncc(-c2nc(N3CCOCC3)nc(N3CCOCC3)n2)c(C(F)F)n1", "cell line": "A704", "setting": "72 h", "endpoint": "GI50", "result": "0.07 µM"}
{"SMILES": "O=C1CCP(=S)(c2ccccc2)CC1", "cell line": "SW480", "assay": "ELISA", "setting": "concentration not given, at IC50", "scale": "baseline: untreated", "endpoint": "IL-6 reduction", "result": "71.8%"}
{"SMILES": "Cc1ccc(S(=O)(=O)NCc2ccc(CNC(=O)c3ccc(F)cc3)cc2)cc1", "cell line": "J774A.1, bacteria-infected", "assay": "measured: TNF-alpha", "setting": "concentration not given", "endpoint": "inhibition", "result": "59%"}
{"SMILES": "COc1cc(CCC[P+](c2ccccc2)(c2ccccc2)c2ccccc2)c(OC)c2c1OCO2.[I-]", "cell line": "RPMI-8226", "assay": "SRB", "endpoint": "TGI", "result": "-5.73 log M"}
{"SMILES": "O=C1CCP(c2ccccc2)CC1", "cell line": "SW480", "assay": "MTT", "setting": "72 h", "scale": "baseline: IC50 HaCaT over IC50 SW480", "endpoint": "selectivity index", "result": 0.8}
{"SMILES": "Cn1cncc1C1=CN(c2ncnc3[nH]cnc23)CCS1", "cell line": "A549/ATCC", "setting": "lung cancer cell line", "endpoint": "CC50", "result": "> 200 µM"}
{"SMILES": "CC(c1ccccc1)(c1ccc(O)cc1)c1ccc(O)cc1", "cell line": "HepG2 spheroids", "assay": "planimetry", "setting": "5 µM, 0 to 24 h", "scale": "baseline: mean area of 72 h spheroids", "endpoint": "spheroid area increase", "result": "128%"}
{"SMILES": "COc1c(C)c2c(c(O)c1C/C=C(\\C)CCC(=O)O)C(=O)OC2", "cell line": "IMR-90", "assay": "cell proliferation", "system": "lung cancer", "endpoint": "IC50", "result": "0.851 µM"}
{"SMILES": "Oc1ccc(C2(c3ccc(O)cc3)c3ccccc3-c3ccccc32)cc1", "cell line": "HepG2 spheroids", "assay": "Hoechst flow cytometry", "setting": "0.1 µM, 24 h", "endpoint": "G1 phase cells", "result": "73.7 ± 4.76%"}
{"SMILES": "O=c1c(O)c(-c2ccc(O)c(O)c2)oc2cc(O)cc(O)c12", "cell line": "SH-SY5Y Aβ-GFP cells, scrambled shRNA", "setting": "5 µM", "endpoint": "neurite branch number", "result": "1.8 to 2.1"}
{"SMILES": "CN1CCN(C2(CNC3CCN(c4cccc(-c5cc6cc(F)ccc6[nH]5)c4)CC3)CCC2)CC1", "cell line": "SF-295", "endpoint": "GI50", "result": "1.8 µM"}
{"SMILES": "CN1CC[C@]2(C)c3cc(OC(=O)Nc4ccccc4)ccc3N(C)[C@H]12", "cell line": "mouse primary cortical neurons", "assay": "Western blot", "setting": "up to 1 µM", "endpoint": "α-synuclein protein decrease", "result": "≤ 70%"}
{"note": "Repeated from above:"}
{"SMILES": "CC[C@H]1CN2CCc3cc(OC)c(OC)cc3[C@@H]2C[C@@H]1C[C@H]1NCCc2cc(OC)c(OC)cc21.Cl.Cl", "cell line": "LDR", "assay": "silenced CMV-GFP reporter derepression, qHTS", "endpoint": "efficacy", "result": "22%"}
{"SMILES": "O=c1cc(-c2ccccc2)oc2c(O)c(O)ccc12", "cell line": "SH-SY5Y Aβ-GFP cells, scrambled shRNA", "setting": "5 µM", "endpoint": "neurite process number", "result": "3.7 to 3.8"}
{"SMILES": "COc1c(C)c2c(c(O)c1C/C=C(\\C)CCC(=O)O)C(=O)OC2", "cell line": "IMR-90", "assay": "cell proliferation", "system": "lung cancer", "endpoint": "IC50", "result": "0.851 µM"}
{"SMILES": "CN1CCc2cc3c(cc2[C@H]1[C@@H]1OC(=O)c2c1ccc1c2OCO1)OCO3", "cell line": "hiPSC glutamatergic neurons", "assay": "burst frequency, multi-electrode array", "setting": "2 h", "endpoint": "lowest effective concentration", "result": "100 µM"}
{"SMILES": "COc1ccc2c(c1)[nH]c1c(C)nccc12", "cell line": "DU-145", "assay": "bisulfite pyrosequencing, measured: RASSF1A promoter CpG site 5", "setting": "10 µM, 16 h", "endpoint": "DNA methylation", "result": "86.8%"}
{"SMILES": "O=S(=O)(c1ccc(O)cc1)c1ccc(O)cc1", "cell line": "HepG2 spheroids", "assay": "flow cytometry", "setting": "concentration not given, 24 h", "endpoint": "cell cycle distribution", "result": "no effect"}
